# Results from different studies.
# Parts stem from different laboratories: compare values within a part only. Substitutions count along the parent as printed.

# Study 1
# Target: ABI1, truncated, D143A, DHFR fusion (Arabidopsis thaliana)
# Technique: DHFR PCA, deep sequencing
# Medium: yeast
# Notes: methotrexate growth selection, single substitutions
# Added: (+)-ABA 0 µM
# Baseline: wild-type fitted maximum
# Reading: higher = stronger binding
# Starting sequence: PYL1, truncated, DHFR fusion (Arabidopsis thaliana); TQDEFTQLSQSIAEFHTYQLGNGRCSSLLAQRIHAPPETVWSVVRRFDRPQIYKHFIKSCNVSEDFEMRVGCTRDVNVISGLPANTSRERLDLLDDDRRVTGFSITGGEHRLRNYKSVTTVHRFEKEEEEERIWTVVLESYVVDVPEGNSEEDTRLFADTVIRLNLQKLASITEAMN; partner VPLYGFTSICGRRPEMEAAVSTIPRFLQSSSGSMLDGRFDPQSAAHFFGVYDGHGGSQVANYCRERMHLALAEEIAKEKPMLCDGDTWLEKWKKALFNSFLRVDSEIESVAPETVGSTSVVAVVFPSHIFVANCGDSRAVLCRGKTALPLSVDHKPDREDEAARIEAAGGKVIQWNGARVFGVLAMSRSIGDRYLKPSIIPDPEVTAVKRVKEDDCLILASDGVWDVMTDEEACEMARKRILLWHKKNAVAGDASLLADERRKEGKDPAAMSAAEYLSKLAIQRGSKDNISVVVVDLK
Variant,relative binding score
L156V,7.26%
P83W,7.12%
N77L,26.4%
R32M,21.6%
G81R,0.451%
C60G,3.9%
E127G,35.9%
D48W,-7.29%
T101E,-7.65%
L112I,3.05%
R132Q,39.2%
A170Q,6.91%
Y141R,-5.93%
L94C,-0.84%
R24K,44.1%
L8E,-0.784%
R88C,11.1%
R49S,12.2%

# Study 2
# Target: RING finger protein unkempt homolog, zinc fingers 1-6, GST-SBP tag (UNK, Homo sapiens, UniProt Q9C0B0, residues 30-357)
# Technique: RNA Bind-n-Seq
# Form: RNA
# Medium: in vitro
# Concentration: not given
# Notes: RNA with constant flanks, human-mouse chimeric sites, ends assumed
# Baseline: input RNA pool
# Reading: higher = stronger binding
# Target sequence (chain): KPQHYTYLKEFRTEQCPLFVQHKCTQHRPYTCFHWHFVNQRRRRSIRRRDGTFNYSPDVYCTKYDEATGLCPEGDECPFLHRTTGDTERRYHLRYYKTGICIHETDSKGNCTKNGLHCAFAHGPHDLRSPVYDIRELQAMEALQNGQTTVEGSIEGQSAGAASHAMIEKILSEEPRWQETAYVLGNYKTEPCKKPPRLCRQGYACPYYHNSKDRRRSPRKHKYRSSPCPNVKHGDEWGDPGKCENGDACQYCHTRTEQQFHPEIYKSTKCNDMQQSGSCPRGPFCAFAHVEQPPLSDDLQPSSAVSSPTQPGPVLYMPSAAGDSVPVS
Sequence,bound/input enrichment [ratio]
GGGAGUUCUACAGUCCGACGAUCGUACUGCAGCAGCAGGGAAAACUGCAGGAAGCACUGAUGCACUAUAAGGAGGCUAUUCGAAUCAGUCCUACCUUUGCUGAUGCCUACUCUAAUAUGGGAAACACUCUAAAGGAGAUGCAGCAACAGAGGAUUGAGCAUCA,0.318
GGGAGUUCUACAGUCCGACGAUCGAUAAGAAAAGCUUGUUGGAGACCCGCUUGCAUGUCACUGGUAGAGACCUGAGGUGUCAAAUAGCUGAAACCUUUGGAUUUCAAGAAAAUUAUAUCAAGAUCGUAAUAAAUAAGAAACAGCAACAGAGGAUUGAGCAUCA,0.675
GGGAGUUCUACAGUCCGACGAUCUGUAGUUUCGCGGUUCAGGCUUUGUGUUGUAUUUACUUACGGUAUUAAAUUAUUAUUCUGCUUAGCUUAUAAUAAGGAUAAUUGCAUUUAAAGAGGUUACUGAAUGUUACUCUGAAACUUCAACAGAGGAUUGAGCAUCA,0.263
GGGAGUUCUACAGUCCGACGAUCUCUGGCCACACUCGUGUGUAUGGUGUUUGCUUUGUUGACACUUCACUGGGCAAGUUUUUCAUCGGCCAGUUUUCGGAUGACCGCCACUGUUCCAGAUUUAGGACGCUAGUGGCUCACUAUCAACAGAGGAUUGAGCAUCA,0.183
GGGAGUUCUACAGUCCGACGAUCCAGGGCACAGCACCUACCCCCUCCUCCUUUCCACACCUGCAAACUCUUUUACUUGGGCUGAAUAUUUAGUGUAAUUACAUCUCAGCUUUGAGGGCUCCUGUGGCAAAAUACCCGGAUAAACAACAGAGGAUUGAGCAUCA,0.783
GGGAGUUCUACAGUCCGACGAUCCACUCGAGGGCUGCCGUUUUCUGUUUCUCCCUGGGCUGCGGAAAGCCAGAAGAUUUUAUCUAGCUUAUACAAGGCUGCUGGUGUUCCCUCCCUCCCGCCACGAGGGUGUUUUUGGCUGCACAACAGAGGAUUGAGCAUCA,0.312
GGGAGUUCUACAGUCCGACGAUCUGUGAACUGUCUCUUGAGAUCUAAAAACAAGAUGACUUUUCCUGGCACAUAUUCCAAAGCAAAGACUUUGUUACCUGCUGCUUAUUGUCUAAUUUACAGGGAUAUUUAAUUUUGUAAGGUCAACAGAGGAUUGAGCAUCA,0.169
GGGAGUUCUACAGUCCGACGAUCAAAGUGAUGACUAUGUUUGUCCAACGACAGGUGUUUGCUGAGAACAAAGAUGAGAUUGCGUUAGUCCUCUAUGGCACAGAUGGCACUGAUAAUGCCCUUGCUGGCAAGGACCAGUAUCAGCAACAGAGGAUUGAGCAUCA,0.0841

# Study 3
# Target: Ras GTPase-activating protein-binding protein 1, full length (G3BP1, Homo sapiens, UniProt Q13283)
# Chain of UniProt Q13283 (whole entry, looked up): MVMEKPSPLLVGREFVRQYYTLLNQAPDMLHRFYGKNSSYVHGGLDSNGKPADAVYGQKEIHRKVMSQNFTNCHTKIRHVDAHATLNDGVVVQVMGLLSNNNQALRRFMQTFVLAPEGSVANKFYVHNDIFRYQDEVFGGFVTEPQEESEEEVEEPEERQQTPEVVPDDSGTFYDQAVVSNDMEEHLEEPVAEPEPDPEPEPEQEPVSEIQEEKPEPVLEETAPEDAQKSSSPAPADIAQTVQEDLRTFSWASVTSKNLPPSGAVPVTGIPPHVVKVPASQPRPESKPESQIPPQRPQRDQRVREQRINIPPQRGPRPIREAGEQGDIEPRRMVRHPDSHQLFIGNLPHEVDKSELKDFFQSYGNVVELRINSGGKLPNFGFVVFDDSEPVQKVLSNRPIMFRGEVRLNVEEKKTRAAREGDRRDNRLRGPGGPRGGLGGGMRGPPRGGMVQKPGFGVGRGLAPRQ
# Technique: RNA Bind-n-Seq
# Form: RNA
# Medium: in vitro
# Concentration: 200 nM
# Notes: whole 134-nt RNA, ends assumed
# Added: 150 mM KCl
# Baseline: input library
# Reading: higher = stronger binding
Sequence,log2 enrichment
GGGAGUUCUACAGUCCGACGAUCGCAGGAAGUAAAAACAAAUGGAAAUGCUUCGGAUAGUGGCAGGGGUGGGGGUUGCUAAGUAAAGGGUGGGAUGGGAGUGGGUAAAGAGUUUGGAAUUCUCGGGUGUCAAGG,0.84
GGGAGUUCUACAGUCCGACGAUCUAACUUUAGAGGAGGAUCUGCUGGAUAUGGCAGUGGACGUGGAUUUGGGGAUGGCUAUAAUGGGUAUGGAGGAGGACCUGGAGGUGGCAAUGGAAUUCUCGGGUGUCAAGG,0.285
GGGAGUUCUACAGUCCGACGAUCUCAAGUCCUGUGCUACACAUCGUAUGUACCGAAUCGGGAAAGGGAAAGGGAAAGGAAAGUAUUAUGUUACGCCGUUCGGAUCUGCACUUCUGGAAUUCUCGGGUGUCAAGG,-0.701
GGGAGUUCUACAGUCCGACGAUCCCUCAAGUCCUGUGCUACACAUCGUAUGUACCGAAUCGGCCGGCCGGGGCCGGAAAGUAUUAUGUUACGCCGUUCGGAUCUGCACUUCCAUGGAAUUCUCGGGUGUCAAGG,-0.0729
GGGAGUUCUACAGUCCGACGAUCUCCUGUGCUACACAUCGUAUGUACCGAAUCGGGGAAAAAAAGGGGUGGGGUUUUUGGGGAAAGUAUUAUGUUACGCCGUUCGGAUCUGCAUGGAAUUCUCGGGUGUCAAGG,0.595
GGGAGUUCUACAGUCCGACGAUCAAGUCCUGUGCUACACAUCGUAUGUACCGAAUCGGGAGGGAAAAAGGGUUUUUGGGAAAGUAUUAUGUUACGCCGUUCGGAUCUGCACUUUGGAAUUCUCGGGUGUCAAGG,0.124
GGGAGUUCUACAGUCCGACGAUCACCAUGCAGGUGGGCAUCUUUGGGAAGUGGGGCAAGGGGGGGAUAGGGAGGGGGGUAACAAUUUGGGAACAGGUGGUCCCAGGUCGUUUCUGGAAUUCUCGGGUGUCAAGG,1.07
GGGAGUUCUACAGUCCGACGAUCGCAGGAAGUAAAAACAAAUGGAAAUGCUUCGGAUAGGGGCAGGGGUGGGGGUUGCUAAGGAAAGGGUGGGAUGGGAGUGGGUAAAGAGUUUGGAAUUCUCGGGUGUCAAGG,1.6
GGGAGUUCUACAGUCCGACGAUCUUUGCAGGGAGUGGUACGGGUAUCACUUUCCGGAGCUGGUGAAGAUCAUCAACGACAAUGCCACAUACUGCCGUCUUGCCCAGUUUAUUGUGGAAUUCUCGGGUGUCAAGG,-0.432

# Study 4
# Target: RNA binding protein fox-1 homolog 2, RRM domain, GST-SBP tag (RBFOX2, Homo sapiens, UniProt O43251-10, residues 100-194)
# Technique: RNA Bind-n-Seq
# Form: RNA
# Medium: in vitro
# Concentration: 365 nM
# Notes: natural RNA segment, single round, ends assumed
# Baseline: no-protein control
# Reading: higher = stronger binding
# Residues (chain): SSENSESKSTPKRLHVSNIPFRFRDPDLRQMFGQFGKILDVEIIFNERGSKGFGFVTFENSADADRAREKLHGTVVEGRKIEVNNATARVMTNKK
Sequence,RBNS enrichment (R)
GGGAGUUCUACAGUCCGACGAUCCAGCAGGGGGCACUGUCCCAGCCCUCUCUGCCCCAGCCAGGCACAGUGGCCUCUAGAGGGUGGUCCUGUAGACCGCACCUUUUAGAGUCGAGGCCUCUGUGGUUGUGCCGUGGAAUUCUCGGGUGCCAA,0.361
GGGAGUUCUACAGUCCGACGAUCAUGAGCAUCUGCAUGUUGACUCUUCAGUUAAGAAAAUUGUUGUUCAUUUAGGGAGGUGGAUAUUCUGAUGAAGAUCUUUAUCCUAAACCUUCCUACUAUCCUUGUCUUAUUGGAAUUCUCGGGUGCCAA,10.2
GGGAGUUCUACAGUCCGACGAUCUCCCUAACAGCAGGCAGCAUCCAUGCUGAAGCACAUACACCUCCGCUCCUCACCAGUGGGUUUUCUUUAUUUAUGAAUUGAUCUGAUUUCUCAACCUCAUUUGAACUAAAUGGAAUUCUCGGGUGCCAA,1.03
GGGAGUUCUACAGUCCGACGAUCUUAAACCUCCCUUCCUAAAAUCUGGGGGGUCGGGGGGAAAGAAAAAAAAAGCCUUAGUGGCCUGGUUGUUCAAAGGAUAAGAAUAGCUUUAUCCUGCACUCAGUACCCGAUGGAAUUCUCGGGUGCCAA,0.824
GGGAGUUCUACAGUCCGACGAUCGAGGCUUGUUUUGUUGUCUGUGUCUGUCUGAAUAACCUGCGUGUCUAAAACCACGUGAAAUGUGAAUGAUUAUUGGCAAUAUUACCUUGACAGAAUCAUGGGACUUUGAGUGGAAUUCUCGGGUGCCAA,0.551
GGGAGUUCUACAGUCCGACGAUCCUGGGUGGCUCCUCGCCUUGGGGGCUCCUGGCCCUGAGGCUGGCGGUGGCCGCAUGCCGGCGCGUGUCUGUUUCUGUGCGGCGGCUCAGGGUGGCGCGGCUGCUGCUCACUGGAAUUCUCGGGUGCCAA,1.46
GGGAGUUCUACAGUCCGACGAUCGGCACGUUACCAUGGAAGCCGCUCCAGGGUGGGUCAGGGUGCAAGCUGCUGGUGAGGUUUGGAAGCAUCAGGCUCACGGGUGUUCAUGUGUGUUCGUGCGUGUGUGUGCGUGGAAUUCUCGGGUGCCAA,0.558
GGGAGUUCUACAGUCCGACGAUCACUUUGUUUCAGGCUGGUCUGUGCCCCGUGAGCCACAUGGCCUAGGGUGAUGCCAGGUUGUCCCGUCACUGGGGUCCCAUCUGUAAAUUCUUUGCGCCCUUCCCGGCUGCUGGAAUUCUCGGGUGCCAA,0.16

# For quick reference, copied from above (study 4):
Sequence,RBNS enrichment (R)
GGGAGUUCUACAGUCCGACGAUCUUAAACCUCCCUUCCUAAAAUCUGGGGGGUCGGGGGGAAAGAAAAAAAAAGCCUUAGUGGCCUGGUUGUUCAAAGGAUAAGAAUAGCUUUAUCCUGCACUCAGUACCCGAUGGAAUUCUCGGGUGCCAA,0.824
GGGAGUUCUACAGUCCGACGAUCGAGGCUUGUUUUGUUGUCUGUGUCUGUCUGAAUAACCUGCGUGUCUAAAACCACGUGAAAUGUGAAUGAUUAUUGGCAAUAUUACCUUGACAGAAUCAUGGGACUUUGAGUGGAAUUCUCGGGUGCCAA,0.551
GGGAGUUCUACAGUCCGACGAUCCUGGGUGGCUCCUCGCCUUGGGGGCUCCUGGCCCUGAGGCUGGCGGUGGCCGCAUGCCGGCGCGUGUCUGUUUCUGUGCGGCGGCUCAGGGUGGCGCGGCUGCUGCUCACUGGAAUUCUCGGGUGCCAA,1.46
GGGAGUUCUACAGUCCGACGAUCGGCACGUUACCAUGGAAGCCGCUCCAGGGUGGGUCAGGGUGCAAGCUGCUGGUGAGGUUUGGAAGCAUCAGGCUCACGGGUGUUCAUGUGUGUUCGUGCGUGUGUGUGCGUGGAAUUCUCGGGUGCCAA,0.558
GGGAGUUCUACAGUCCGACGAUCACUUUGUUUCAGGCUGGUCUGUGCCCCGUGAGCCACAUGGCCUAGGGUGAUGCCAGGUUGUCCCGUCACUGGGGUCCCAUCUGUAAAUUCUUUGCGCCCUUCCCGGCUGCUGGAAUUCUCGGGUGCCAA,0.16
